Measured values collected from several papers.
Protocols differ between the studies behind these lines. Numbers after ± are the reported error. In brackets after ≈: the same amount, converted by molar mass.
Organism: Pseudomonas aeruginosa

Molecule	test	system	setting	measurement	value
CC(C)c1cccc(=S)c(O)c1	microbial growth, broth dilution	ATCC27853	–	MIC80	> 100 µM
C[C@H]1c2cccc(O)c2C(=O)C2=C(O)[C@]3(O)C(=O)C(C(N)=O)=C(O)[C@@H](N(C)C)[C@@H]3[C@@H](O)[C@@H]21	checkerboard broth microdilution	clinical isolate 17-99	with: ranalexin	FIC index	0.375
O=C(Nc1ccccc1F)c1cc(Cl)ccc1O	microbial growth, broth dilution	ATCC27853	–	MIC	> 64 µg/mL
CC(=O)N[C@@H](C)C(=O)N[C@@H](CCC(N)=O)C(=O)N[C@@H](CCCCN)C(=O)N[C@@H](CC(C)C)C(=O)N[C@@H](CC(C)C)C(=O)N[C@@H](CCCCN)C(=O)N[C@@H](CCCCN)C(=O)N[C@@H](Cc1ccccc1)C(=O)N[C@@H](CO)C(=O)N[C@@H](CC(C)C)C(=O)N[C@@H](CC(C)C)C(=O)N[C@@H](CCCCN)C(=O)N1CCC[C@H]1C(=O)N[C@@H](Cc1c[nH]c2ccccc12)C(=O)N[C@@H](C)C(=O)O	Fe2+ uptake	PA14, iron-depleted	25 µM, 45 min pretreatment, 35 °C, with: FeSO4 100 µM, 15 min	inhibition	61%
colistin	checkerboard titration	ATCC 27853	with: ranalexin	FIC index	0.25
GIGKFLHSAKKFGKAFVGEIMNS-NH2 (C-amide)	bacterial growth, broth microdilution	peptide, PAO1, Mueller-Hinton broth	overnight, 37 °C	MIC50	10.6 ± 2.21 µg/mL
CC(C)C[C@H](NC(=O)CNC(=O)[C@H](C)NC(=O)c1ccc(S[C@@H]2O[C@H](CO)[C@H](O)[C@H](O)[C@H]2O)cc1)C(=O)N[C@@H](C)C(=O)N[C@H]1CCN(c2cc3c(cc2F)c(=O)c(C(=O)O)cn3C2CC2)C1	broth microdilution	PA14, culture supernatant in PBS	10% supernatant, pre-incubation under 10 min	MIC	0.78 to 1.56 µM
O=C(O)CSc1nnc(C23CC4CC(CC(C4)C2)C3)n1-c1ccccc1	–	IFO 3448	200 µg/disc, 24 h, 37 °C	inhibition zone diameter	< 10 mm
Cc1cc(C)n(C(N)=S)n1.Cc1ccc(C(C)C)cc1.[Cl][Ru][Cl]	broth microdilution, agar subculture	ATCC 25619	–	MBC	> 1000 µg/mL
CC[C@H](C)[C@H](NC(=O)CNC(=O)[C@H](CCC(=O)O)NC(=O)[C@H](CO)NC(=O)[C@@H](NC(=O)[C@H](CCCNC(=N)N)NC(=O)[C@H](CCCCN)NC(=O)[C@H](CCCCN)NC(=O)[C@H](C)NC(=O)[C@H](CO)NC(=O)[C@H](CC(N)=O)NC(=O)[C@H](CCC(=O)O)NC(=O)[C@H](CC(C)C)NC(=O)[C@H](CCCCN)NC(=O)[C@H](CCCCN)NC(=O)[C@H](C)NC(=O)[C@@H](NC(=O)[C@H](CCCCN)NC(=O)[C@H](CO)NC(=O)[C@H](CC(C)C)NC(=O)[C@H](Cc1c[nH]c2ccccc12)NC(=O)[C@@H](N)CO)[C@@H](C)O)[C@@H](C)CC)C(=O)N[C@@H](C)C(=O)N[C@H](C(=O)N[C@@H](C)C(=O)N[C@H](C(=O)N[C@@H](CCC(N)=O)C(=O)NCC(=O)NCC(=O)N1CCC[C@H]1C(=O)N[C@@H](CCCNC(=N)N)C(=O)O)[C@@H](C)CC)[C@@H](C)CC	broth microdilution	–	18 h, 10 clinical isolates	MIC90	16 µg/mL (≈ 4.79 µM)
Polymyxin B	biofilm formation	PAO1	24 to 25 h, 37 °C	MBIC	16 µg/mL
C[C@@H](O)[C@H]1C(=O)N2C(C(=O)O)=C(S[C@@H]3CN[C@H](C(=O)N(C)C)C3)[C@H](C)[C@H]12	checkerboard broth microdilution	clinical isolate 17-99	with: ranalexin	FIC index	0.75
C=CCc1cc(/C=C2/SC(Nc3ccc(S(N)(=O)=O)cc3)=NC2=O)c(O)c(OC)c1	microbial growth	ATCC10145	50 µg/mL, 24 h	inhibition	32.1%
CCC(=O)O[C@H]1[C@H](C)O[C@@H](O[C@H]2[C@H](N(C)C)[C@@H](O)[C@H](O[C@H]3[C@@H](CC=O)C[C@@H](C)[C@@H](O)/C=C/C=C/C[C@@H](C)OC(=O)C[C@@H](O)[C@@H]3OC)O[C@@H]2C)C[C@@]1(C)O	–	K799/61, DMSO-methanol	50 µL of 2.0 mM, 24 h, 37 °C, 9 mm well	inhibition zone diameter	21.5 mm
O=C(Nc1ccc(F)cc1[N+](=O)[O-])c1cc(Cl)ccc1O	microbial growth, broth dilution	ATCC27853	–	MIC	> 64 µg/mL

Excerpt of the above:
Molecule	test	system	setting	measurement	value
CC(C)C[C@H](NC(=O)CNC(=O)[C@H](C)NC(=O)c1ccc(S[C@@H]2O[C@H](CO)[C@H](O)[C@H](O)[C@H]2O)cc1)C(=O)N[C@@H](C)C(=O)N[C@H]1CCN(c2cc3c(cc2F)c(=O)c(C(=O)O)cn3C2CC2)C1	broth microdilution	PA14, culture supernatant in PBS	10% supernatant, pre-incubation under 10 min	MIC	0.78 to 1.56 µM
C[C@@H](O)[C@H]1C(=O)N2C(C(=O)O)=C(S[C@@H]3CN[C@H](C(=O)N(C)C)C3)[C@H](C)[C@H]12	checkerboard broth microdilution	clinical isolate 17-99	with: ranalexin	FIC index	0.75
